Published values of several laboratories.
A part holds a random share of what one study measured. Positions count from the first letter of the parent shown.

Set 1 — target: CCNE1, cyclin fold, Cln2 fusion (human); method: yeast growth competition, sequencing; medium: yeast; setting: strong parent motif; relative to: not given; reading: higher = stronger binding; measurement: normalised enrichment score
Starting sequence: GMNC docking peptide (human); KNAKRNLSSEFAN
K4H: -0.194
A3I: 0.514
N2W: 0.914
A12Y: 0.812
F11V: 0.213
L7E: 0.147
F11L: 0.961
E10W: 1.13
N2M: 0.809
S8C: 1.27
K4T: 0.227
L7M: 0.627
S9V: 1.15
S9T: 1.52
A3F: 1.02
F11C: 0.2
A3S: 0.391
S8V: 1.53

Set 2 — method: RNA Bind-n-Seq; molecule type: RNA; medium: in vitro; tested at: not given; relative to: input RNA pool; reading: higher = stronger binding; measurement: bound/input enrichment
Target: RING finger protein unkempt homolog, zinc fingers 1-6, GST-SBP tag (UNK, Homo sapiens, UniProt Q9C0B0, residues 30-357)
UniProt Q9C0B0, sequence (30-357, looked up): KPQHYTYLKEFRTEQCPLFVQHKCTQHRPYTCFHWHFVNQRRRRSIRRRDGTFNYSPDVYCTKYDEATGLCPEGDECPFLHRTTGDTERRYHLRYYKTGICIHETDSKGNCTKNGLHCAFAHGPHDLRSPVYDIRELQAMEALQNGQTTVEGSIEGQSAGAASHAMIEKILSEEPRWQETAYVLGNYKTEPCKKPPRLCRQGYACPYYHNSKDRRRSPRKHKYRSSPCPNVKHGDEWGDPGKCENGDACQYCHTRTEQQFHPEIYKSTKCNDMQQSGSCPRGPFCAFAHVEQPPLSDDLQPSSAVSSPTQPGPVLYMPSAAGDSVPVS
Setting: RNA with constant flanks, human and mouse sites, ends assumed
Shared flanks, not repeated: GGGAGUUCUACAGUCCGACGAUC … CAACAGAGGAUUGAGCAUCA
AAUUCAUAAUCACGCUAAUUGUAAUCUGGAGACGUGUAACAUUGUGUAGCCUUUUGUAUAAAUAGACAGAUAGAAAUGGUCCGAUUAGUUUCCUUUUUAAUAUGCUUAAAAUAAGCAGGU: 6.72 ratio
AAAAAUGGCAAAUAAUAUGAUAUUGGGUGUUUAAAUAGUACAAUAUUGUUCAAAACACACUUUAUAAUUUUUAACAGACUGUUUGGACAUUGAUAAUUCCCCUAUCAAAUCUCAUGACAU: 0.148 ratio
UUAGAAUGUGAAUUCUAUCUGUUAGAACUAAUGGAUUGUUGCUUGAUAGUGUAUCAUCCUUAUAGACCUUUGCUCCAGUAUGUGCAGGACAUGGGCCAAGAAGACAUGUUGCUUCCCCUU: 0.316 ratio
CUUGGCUGCUGUGUAGACUUACUUCCUCUGGUAAAGUCUUUACUUCAAAGCAGAUUUGAAGAAUAUGUAAUUGUUGGUUUAAACUGGCUUCAAGCAGUAAUAAAAAGGUGGUGGUCAGAA: 0.337 ratio
UAUUACACUCAGAUGCUUCUCCUGGCCGCAGUUGUAGGAGUGGCUUGCUUUCUCUAUGGAUAUCUUAAUCAAGAUAACUGUACAUGGAGCAAAGAAGUUUGUCAUCCUGAUAUUGGUGGC: 0.247 ratio
AAAGAAUACACUGAUGUGUACCCCGAAAUCAUUGAACGAGCAGGCUAUUCCUUGGAGAAGGUAUUUGGGAUUCAAUUGAAGGAAAUUGAUAAGAAUGACCACUUGUACAUUCUUCUCAGC: 0.117 ratio
AAAAGCAACGACUUCGUAUGCCCCAUCUGCUUUGAUAUGAUUGAAGAAGCAUACAUGACAAAAUGUGGCCACAGCUUUUGCUACAAGUGUAUUCAUCAGAGUUUGGAGGACAAUAAUAGA: 0.283 ratio
AGGAUGGCACAACUUCUGGAUCUCUCUGUGGAUGAGUCAGAGGCUUUCCUCUCGAAUCUAGUCGUUAACAAGACCAUCUUUGCUAAAGUAGACAGGUUGGCUGGAGUCAUCAACUUCCAG: 0.154 ratio
CUGUAUCUUUCUGCUAUUCGAAAGAUCCCAGCCUUGACUGAAAAUGAUCCUGAAACUUGGAUAGUUUGUAAUUUUUCUGUGGAUCAUGAUAGUGCUCCUCUGAACAAUCGAUGUGUCCGU: 0.315 ratio
CCAGAGCUCAAAUACCCAAAAGGAGCUGGAAGAGUCGCGUUUUCUAAUCAACAGAGUUACAUAGCUGCUAUCAGUGCCCGCUUUGUUCAGCUGCAGCAUGGAGAGAUAGAUAAACGGGUG: 0.269 ratio
AAGAUCAAAGAGAAAUACAUUGAUCAGGAAGAACUAAACAAGACCAAGCCUAUUUGGACCAGAAACCCUGAUGACAUCACCCAAGAGGAGUAUGGAGAAUUCUACAAGAGCCUCACUAAU: 0.114 ratio

Set 3 — method: RNA Bind-n-Seq; molecule type: RNA; medium: in vitro; tested at: 200 nM; setting: whole 134-nt RNA, ends assumed; together with: 150 mM KCl; relative to: input library; reading: higher = stronger binding; measurement: log2 enrichment
Target: Ras GTPase-activating protein-binding protein 1, full length (G3BP1, Homo sapiens, UniProt Q13283)
UniProt Q13283, sequence (whole entry, looked up): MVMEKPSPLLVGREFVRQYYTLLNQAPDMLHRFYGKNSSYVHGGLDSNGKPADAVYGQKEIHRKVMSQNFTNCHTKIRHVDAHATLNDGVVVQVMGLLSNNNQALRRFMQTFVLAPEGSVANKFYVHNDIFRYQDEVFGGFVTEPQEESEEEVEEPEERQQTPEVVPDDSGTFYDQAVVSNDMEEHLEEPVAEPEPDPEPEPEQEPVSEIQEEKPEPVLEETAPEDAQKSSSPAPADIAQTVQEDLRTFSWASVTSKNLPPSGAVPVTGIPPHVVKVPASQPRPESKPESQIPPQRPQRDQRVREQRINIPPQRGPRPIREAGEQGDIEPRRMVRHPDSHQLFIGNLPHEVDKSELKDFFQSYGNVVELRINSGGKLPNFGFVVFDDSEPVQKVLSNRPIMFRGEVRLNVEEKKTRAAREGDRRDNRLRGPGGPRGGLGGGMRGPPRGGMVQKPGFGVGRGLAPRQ
Shared flanks, not repeated: GGGAGUUCUACAGUCCGACGAUC … UGGAAUUCUCGGGUGUCAAGG
CUGUGCUACACAUCGUAUGUACCGAAUCGGGGUUUUUGGGGAAAAAAAGGGGUUUUUGGGGAAAGUAUUAUGUUACGCCGUUCGGAUCUG: -0.0919
AGUCCUGUGCUACACAUCGUAUGUACCGAAUCGGGGCCCCGGGGCCCCGGGCCCCGGAAAGUAUUAUGUUACGCCGUUCGGAUCUGCACU: 0.374
GUCCUGUGCUACACAUCGUAUGUACCGAAUCGGGGCCCCGGGGCCCCGGGGCCCCGGGGAAAGUAUUAUGUUACGCCGUUCGGAUCUGCA: 1.54
UGGCCCUGGUGGCAUGCGGGGAGGAAGAGGUGGCCUCAUGGAUCGUGGUGGUCCCGGUGGAAUGUUCAGAGGUGGCCGUGGUGGAGACAU: 0.133
GCAGGAAGUAAAAACAAAUGGAAAUGCUUCGGAUAGUGGCAAGGGUGGGGGUUGCUAAGGAAAGGGUGGGAUGGGAGUGGGUAAAGAGUU: 0.786
ACCAUGCAGGUGGGCAUCUUUGGCAAGUGGGGCAAGGGGGGGAUAGGGAGGGGGGUAACACUUUGGGAACAGGUGGUCCCAGGUCGUUUC: 0.992
CUCAAGUCCUGUGCUACACAUCGUAUGUACCGAAUCGGUGGGGUGGGGUGGGGAAAGUAUUAUGUUACGCCGUUCGGAUCUGCACUUCCA: 1.06
UCAAGUCCUGUGCUACACAUCGUAUGUACCGAAUCGGGGCCGGCCGGGGCCGGGAAAGUAUUAUGUUACGCCGUUCGGAUCUGCACUUCC: -0.527
UGGGAGGUGGAUUUUGUUUAUUUUUUUAGCUCAUUUGCAGGGGUGGGAAUUUUUUUUUAAUAUGUGUCAUGAAUAAAGUUGUUUUUGAAA: 0.297
GCAGGAAGUAAAAACAAAUGGAAAUUCUUCGGAUAGUGGCAGGGGUGGGGGUUGCUAAGGAAAGGGUGGGAUGGGAGUGGGUAAAGAGUU: 0.735
UGGGAGGUGGAUUUUGUUUAUUUUUUUAGCUCAUUUCCAGGGGUGGGAAUUUUAUUUUAAUAUGUGUCAUGAAUAAAGUUGUUUUUGAAA: 0.177

Other studies, line by line
PhoQ, residues 284 288 289 292 302 303 TLSLKA  fold induction (PhoP, residues 12 14 15 18 19 GMGLL (Escherichia coli, UniProt P23836); Sort-seq, refers to: YFP reporter; E. coli; PhoQ-PhoP variant library, together with: 10 µM Mg2+; relative to: high Mg2+ state, higher = stronger signaling): 1.19

A few entries again (set 1):
A12Y: 0.812
F11V: 0.213
L7E: 0.147
